{"data": "Published values collected from several papers", "note": "Each numbered part is a random draw from the data of one study; scales do not carry over between parts. Numbers after ± are the reported error."}
{"data": "Set 1", "SMILES": "CC(=O)N[C@@H](Cc1c[nH]c2ccccc12)C(=O)N[C@@H](CCC(=O)C=[N+]=[N-])C(=O)OC(C)C", "sample": "EL4 tumour", "dose": "dose not given", "baseline": "vehicle"}
{"test": "measured: spermidine", "test system": "mouse, EL4 tumour-bearing", "log2 fold change": -0.0627}
{"test": "measured: N-acetyl-1-methylhistidine*", "test system": "mouse, EL4 tumour-bearing", "log2 fold change": -0.0269}
{"test": "measured: hypoxanthine", "test system": "mouse, EL4 tumour-bearing", "log2 fold change": 0.121}
{"test": "measured: carotene diol (1)", "test system": "Mus musculus", "log2 fold change": 1.18}
{"test": "measured: N,N,N-trimethyl-5-aminovalerate", "test system": "Mus musculus", "log2 fold change": -0.372}
{"test": "measured: betaine", "test system": "mouse, EL4 tumour-bearing", "log2 fold change": -0.599}
{"test": "measured: daidzein", "test system": "mouse, EL4 tumour-bearing", "log2 fold change": -1.1}
{"test": "measured: reduced glutathione", "test system": "Mus musculus", "log2 fold change": -1.16}
{"data": "Set 2", "SMILES": "COc1cc(C(=O)N2CCC(N3CCN(C)CC3)CC2)ccc1Nc1ncc2c(n1)N(C)c1ccccc1C(=O)N2C", "effect on": "kinase activity"}
{"target": "HIPK2", "conditions": "1 µM", "remaining activity [%]": "76 ± 4"}
{"target": "ROCK2", "conditions": "10 µM", "remaining activity [%]": "84 ± 11"}
{"target": "TBK1", "conditions": "10 µM", "remaining activity [%]": "104 ± 13"}
{"target": "TTK", "conditions": "10 µM", "remaining activity [%]": "91 ± 6"}
{"target": "Aurora B", "conditions": "10 µM", "remaining activity [%]": "28 ± 1"}
{"target": "MAPKAP-K2", "conditions": "10 µM", "remaining activity [%]": "84 ± 2"}
{"target": "TRKA", "conditions": "10 µM", "remaining activity [%]": "32 ± 35"}
{"target": "CHK1", "conditions": "1 µM", "remaining activity [%]": "82 ± 9"}
{"target": "ERK8", "conditions": "1 µM", "remaining activity [%]": "86 ± 1"}
{"target": "DYRK2", "conditions": "1 µM", "remaining activity [%]": "90 ± 5"}
{"data": "Set 3", "target": "Beta-1 adrenergic receptor (ADRB1, Homo sapiens, UniProt P08588)", "action": "antagonist", "sequence of UniProt P08588 (whole entry, looked up)": "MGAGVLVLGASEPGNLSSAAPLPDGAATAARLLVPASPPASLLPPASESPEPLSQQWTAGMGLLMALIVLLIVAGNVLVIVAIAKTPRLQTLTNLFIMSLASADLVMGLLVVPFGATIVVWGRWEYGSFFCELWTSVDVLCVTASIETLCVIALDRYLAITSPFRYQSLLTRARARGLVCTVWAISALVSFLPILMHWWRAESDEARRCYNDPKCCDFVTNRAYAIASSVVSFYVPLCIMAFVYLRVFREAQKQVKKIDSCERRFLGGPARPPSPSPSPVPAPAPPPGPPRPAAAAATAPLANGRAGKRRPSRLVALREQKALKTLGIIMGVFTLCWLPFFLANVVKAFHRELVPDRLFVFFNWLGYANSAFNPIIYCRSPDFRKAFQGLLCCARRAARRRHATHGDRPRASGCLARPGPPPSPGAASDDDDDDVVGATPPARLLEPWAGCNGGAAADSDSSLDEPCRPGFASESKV"}
{"SMILES": "OC(COc1ccc(CN2CC(Oc3ccccc3)C2)cc1)CN1CCCCC1 (stereo not shown)", "IC50 [µM]": "≥ 100"}
{"SMILES": "COc1cc(CNCCOc2ccccc2)ccc1OCC(O)CN1CCOCC1 (stereo not shown)", "IC50 [µM]": "≥ 100"}
{"SMILES": "CN(C)c1ccc(CN2CCOC[C@H]2c2nc(-c3cccc(F)c3)c[nH]2)cc1", "IC50 [µM]": "≥ 100"}
{"SMILES": "OC(CNc1ncnc2c1cnn2-c1ccccc1)C1CC1 (stereo not shown)", "IC50 [µM]": "≥ 100"}
{"SMILES": "CN(C)c1ccc(/C=C/C2=CC(/C=C/c3ccc(N(C)C)cc3)=[O+][B-](F)(F)O2)cc1", "IC50 [µM]": "≥ 100"}
{"SMILES": "COCCN1CCOc2nc(-c3cccc(N(C)C)c3)ncc2C1=O", "IC50 [µM]": "≥ 100"}
{"SMILES": "COC(=O)C1CCN(CC(O)COc2cccc(CN3CC=C(C)CC3)c2)CC1 (stereo not shown)", "IC50 [µM]": "≥ 100"}
{"SMILES": "CC(CNCCc1ccc(O)c(O)c1)Cc1cccc(O)c1 (stereo not shown)", "IC50 [µM]": "≥ 100"}
{"SMILES": "O=C(Cn1ncc(=O)c2ccccc21)NCC(O)c1ccc(F)c(F)c1 (stereo not shown)", "IC50 [µM]": "≥ 100"}
{"SMILES": "COc1cc(OC)c2ccc(=O)oc2c1", "IC50 [µM]": "≥ 100"}
{"SMILES": "COc1ccc2[nH]cc(C3=CCN(c4ncnc5ccccc45)CC3)c2c1", "IC50 [µM]": "≥ 100"}
{"SMILES": "COc1cc(F)ccc1-c1nc(N2CCOCC2)cc2c1CN(CC(F)(F)F)C2=O", "IC50 [µM]": "≥ 100"}
{"SMILES": "Cc1oc(C(O)c2cccc(O)c2)nc1C(=O)NC1CCOCC1 (stereo not shown)", "IC50 [µM]": "≥ 100"}
{"data": "Set 4", "SMILES": "CC(C)n1cnc(-c2ccc(F)cc2)c1-c1ncc(C(=O)Nc2ccc(N3CCN(C)CC3)cc2)[nH]1"}
{"test": "Phase 2a trial, measured: blood creatinine increased", "test system": "human, idiopathic pulmonary fibrosis", "conditions": "60 mg once daily, grade 4", "patients with adverse event": "0%"}
{"test": "Phase 2a trial, measured: blood creatinine increased", "test system": "human, idiopathic pulmonary fibrosis", "conditions": "all compound arms total, grade 4", "patients with adverse event": "0%"}
{"test": "Phase 2a trial, measured: blood lactate dehydrogenase increased", "test system": "human, idiopathic pulmonary fibrosis", "conditions": "30 mg once daily, grade 3", "patients with adverse event": "0%"}
{"test": "Phase 2a trial, measured: hepatobiliary disorders", "test system": "human, idiopathic pulmonary fibrosis", "conditions": "all compound arms total, grade 5", "patients with adverse event": "0%"}
{"test": "Phase 2a trial, measured: blood glucose increased", "test system": "human, idiopathic pulmonary fibrosis", "conditions": "30 mg once daily, grade 2", "patients with adverse event": "0%"}
{"test": "Phase 2a trial, measured: blood pressure increased", "test system": "human, idiopathic pulmonary fibrosis", "conditions": "all compound arms total, grade 1", "patients with adverse event": "0%"}
{"test": "measured: prostatic calcification, maximum grade 2", "test system": "idiopathic pulmonary fibrosis patients", "conditions": "oral, 60 mg once daily", "patients with adverse event": "0%"}
{"test": "Phase 2a trial, measured: haemorrhoids", "test system": "human, idiopathic pulmonary fibrosis", "conditions": "30 mg once daily, grade 4", "patients with adverse event": "0%"}
{"test": "Phase 2a trial, measured: hepatic steatosis", "test system": "human, idiopathic pulmonary fibrosis", "conditions": "60 mg once daily, grade 4", "patients with adverse event": "0%"}
{"note": "For quick reference, copied from above (set 1):"}
{"test": "measured: N-acetyl-1-methylhistidine*", "test system": "mouse, EL4 tumour-bearing", "log2 fold change": -0.0269}
{"test": "measured: hypoxanthine", "test system": "mouse, EL4 tumour-bearing", "log2 fold change": 0.121}
{"test": "measured: carotene diol (1)", "test system": "Mus musculus", "log2 fold change": 1.18}
{"test": "measured: N,N,N-trimethyl-5-aminovalerate", "test system": "Mus musculus", "log2 fold change": -0.372}
{"test": "measured: betaine", "test system": "mouse, EL4 tumour-bearing", "log2 fold change": -0.599}
{"test": "measured: daidzein", "test system": "mouse, EL4 tumour-bearing", "log2 fold change": -1.1}
